# Published values of several laboratories.
# Each numbered part is a random draw from the data of one study; scales do not carry over between parts.

# Study 1 — method: RNAcompete; molecule type: RNA; sample: in vitro; tested at: 20 nM; setting: 7-mer, probes averaged, single round; baseline: mean of 7-mers; direction: higher = stronger binding
# Target: PABPC1L2, full length, GST fusion (mouse, UniProt A0ABA7IW68)
# Construct (chain): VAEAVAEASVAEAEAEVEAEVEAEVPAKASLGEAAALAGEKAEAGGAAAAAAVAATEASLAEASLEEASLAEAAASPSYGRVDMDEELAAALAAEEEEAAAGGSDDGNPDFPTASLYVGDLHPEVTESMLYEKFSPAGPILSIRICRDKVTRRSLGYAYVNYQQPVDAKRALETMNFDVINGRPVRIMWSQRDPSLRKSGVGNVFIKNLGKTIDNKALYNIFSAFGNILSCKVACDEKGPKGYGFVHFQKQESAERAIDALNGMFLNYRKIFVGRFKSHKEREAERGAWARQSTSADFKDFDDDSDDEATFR
Oligonucleotide,7-mer Z-score
AGGAGUA,0.0551
ACAAUUG,0.0551
CGAGCUC,-0.382
UACUCAA,-0.124
AGUAGCC,-0.262
CGGUGAC,-0.0464
GAUUGUC,-0.249
CAUAUCA,-0.171
GGUCGAU,-0.115
GGUAGAC,0.0569
CAUCAGU,-0.197
GACGAUU,-0.11
UUUGCUA,-0.298
CGAAUGG,-0.104
AAUGGCC,0.171
CAGAGGG,0.256
ACAUUUA,0.254
CUAGUUA,-0.206
UUCUGCU,-0.429
GACAAGU,0.0913
AGGUCAG,-0.0264
UGAUGCA,-0.0935
GCCCCUA,-0.306
AGUUGAU,0.00254
UGUCCCG,-0.32

# Study 2 — method: protein binding microarray; molecule type: double-stranded DNA, one strand shown; sample: in vitro; tested at: not given; baseline: not given; direction: higher = stronger binding
# Target: Histone acetyltransferase KAT6A, winged helix 1, GST fusion (KAT6A, Homo sapiens, UniProt Q92794, residues 1-85)
# Setting: 8-mer, flanks averaged, mean of 2 arrays, mostly near background
# Construct (chain): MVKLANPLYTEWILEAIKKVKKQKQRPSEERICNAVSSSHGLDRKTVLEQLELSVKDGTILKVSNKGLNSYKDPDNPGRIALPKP
Oligonucleotide,E-score
GTAAGGAA,-0.223
AATCTGGT,-0.237
GGCGATAA,0.136
TATAAGCA,-0.141
AGTGTGGC,0.0162
GATTCTGA,-0.0915
AGTGTAAG,-0.0789
CGTGATAG,0.0802
ACCCTTAT,-0.0291
CCCGTTGC,0.277
CCTCCCCG,0.308
AGCCTTTA,-0.0513
CTCTGGGC,-0.146
AAGCACGG,0.212
CGGATTTC,0.208
ATAGACAA,-0.147
GTTCTCTA,0.0388
CTATCGAA,0.0206
AGAGCCAT,-0.0801
AAGATCGT,-0.0527
GGATAGTA,-0.0192
ACTTGCCC,-0.126
CATTCGCC,0.188
CCCCGGGC,0.264

# Study 3 — method: RNA Bind-n-Seq; molecule type: RNA; sample: in vitro; tested at: 200 nM; setting: whole 134-nt RNA, ends assumed; added: 150 mM KCl; baseline: input library; direction: higher = stronger binding
# Target: Ras GTPase-activating protein-binding protein 1, full length (G3BP1, Homo sapiens, UniProt Q13283)
# Sequence of UniProt Q13283 (whole entry, looked up): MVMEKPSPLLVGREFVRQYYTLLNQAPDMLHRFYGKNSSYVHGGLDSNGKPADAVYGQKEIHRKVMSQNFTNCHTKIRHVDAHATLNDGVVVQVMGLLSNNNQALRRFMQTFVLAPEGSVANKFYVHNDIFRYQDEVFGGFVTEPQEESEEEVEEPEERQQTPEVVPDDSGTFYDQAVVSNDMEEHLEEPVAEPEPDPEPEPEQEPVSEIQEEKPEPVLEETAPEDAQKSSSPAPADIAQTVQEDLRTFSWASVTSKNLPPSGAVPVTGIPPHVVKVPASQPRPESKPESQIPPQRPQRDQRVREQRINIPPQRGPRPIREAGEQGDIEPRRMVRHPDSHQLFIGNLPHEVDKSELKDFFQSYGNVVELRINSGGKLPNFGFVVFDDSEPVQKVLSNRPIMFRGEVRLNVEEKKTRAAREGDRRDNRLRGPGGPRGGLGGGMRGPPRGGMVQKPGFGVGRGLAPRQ
# Shared flanks, not repeated: GGGAGUUCUACAGUCCGACGAUC … UGGAAUUCUCGGGUGUCAAGG
Oligonucleotide,log2 enrichment
UGGGAGGUGGAUUUUGUUUAUUUUUUUAGCUGAUUUCCAGGGGUGGGAAUUUUUUUUUAAUAUGUGUCAUGAAUAAAGUUGUUUUUGAAA,0.331
CUCAAGUCCUGUGCUACACAUCGUAUGUACCGAAUCGGGGAAGGAAGGGAAGGGAAAGUAUUAUGUUACGCCGUUCGGAUCUGCACUUCC,-0.0325
UCCUGUGCUACACAUCGUAUGUACCGAAUCGGGCCCCCCGGGGCCCCCCGGGCCCCCCGGAAAGUAUUAUGUUACGCCGUUCGGAUCUGC,-0.142
CUCAAGUCCUGUGCUACACAUCGUAUGUACCGAAUCGGUUUGGGUUUGGUUUGGAAAGUAUUAUGUUACGCCGUUCGGAUCUGCACUUCC,-0.381
CAAGUCCUGUGCUACACAUCGUAUGUACCGAAUCGGUUUGGGUUUGGGGUUUGGGGAAAGUAUUAUGUUACGCCGUUCGGAUCUGCACUU,-0.321
ACCAUGCAGGUGGGCAUCUUUGGUAAGUGGGGCAAGGGGGGGAUAGGGAGGGGGGUAACACUUUGGGAACAGGUGGUCCCAGGUCGUUUC,0.979
CUGUGCUACACAUCGUAUGUACCGAAUCGGGCCCCCCGGGGCCCCCCGGGGCCCCCCGGGGAAAGUAUUAUGUUACGCCGUUCGGAUCUG,-1.26
AAGUCCUGUGCUACACAUCGUAUGUACCGAAUCGGGUUUUGGUUUUGGGGUUUUGGAAAGUAUUAUGUUACGCCGUUCGGAUCUGCACUU,-1.1
AAGACAUUUGUUGUAUUUAUGGUUGUAACUGUACAUGCUUAUCAGGAUGAGACUGAAAGAAGGUAGGGCAAAAAUGGUUGAAUCUAUUUU,-1.09

# Study 4 — method: RNA Bind-n-Seq; molecule type: RNA; sample: in vitro; tested at: 365 nM; baseline: no-protein control; direction: higher = stronger binding
# Target: RNA binding protein fox-1 homolog 2, RRM domain, GST-SBP tag (RBFOX2, Homo sapiens, UniProt O43251-10, residues 100-194)
# Setting: natural RNA segment, single round, ends assumed
# Shared flanks, not repeated: GGGAGUUCUACAGUCCGACGAUC … UGGAAUUCUCGGGUGCCAA
# Residues (chain): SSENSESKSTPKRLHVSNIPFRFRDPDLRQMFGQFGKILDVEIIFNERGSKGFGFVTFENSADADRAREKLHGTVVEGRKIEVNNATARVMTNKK
Oligonucleotide,RBNS enrichment (R)
CCCCAAGGUGAAGUGGAGGGUGCUGUGGUGAGCUGGCCACUCCAGAGCUGCAGUGCCACUGGAGGAGUCAGACUACCAUGACAUCGUAGGGAAGGAGGGGAGAUUUUUUU,0.52
UUAUAUGUAUGAAUAUUUCAUAGUUUUGCAUAUCAGAUGUAGGCAUACAGACAAAUACAUAAACCAAUGAAUAUAUUACAUAUUCUGUGUUCCAAUAAAACUUUAUUUAU,0.327
GUAAAGUUUUUGUAUAUUUCAUAUUCCACCCACCAGAUUCUGCUUCCAUUUAAUAAAACCCUUUUUGAAGCUGUGUGUUCUCUGGUGUGUCACAGCAGUGUGCGGUCCUC,0.547
AAGAAUUGGCUUGUAUAGUUAUAACAACCACAGUAGAAACAUUUCUACUUUGAGAGAAUUUCAAUAUUCUCUUAAUGUUGUGUAAUUGAUUAGGUAACUAAAAAGCGCAA,0.435
UAAUCUAGUUGGCAAAGGUGUGCGCUAAAACACGGAACCGAACAUGCAUUGAUUUGGAUAACUUUUGAGGGUUUUUGUCAAAUAGCAUGUGAAGAGUUACAUUUUUCUUA,1.28
CGAGAUCUGGGAACAGAAGAGUGAUGACAGACUGGAGACCCAGGUCGUUCAUCUGACCACGGGAUGUGUUUCUGAAGAAAAUCUGGAUGCCUGGUGUGUUAGGAACUGAA,0.488
UAUUUCCUUUGGGAGUUUCCUCUUCAUGCAUUUUGUUCCUAGGGAAUAAAAAUAGCUGUUAGACCUGUGUCUGGCCUCUGUGUUCCUUCAAGUAACCACCCUAGAGGAGA,0.97
CACACACACACGUUUGCAGGGGUGUCUCGGUUUGCAUUUCUGUUGGAAUGAUCCGAACUGGACUCACAUCCUGUAUGGUGGAUGGACUGUAUAUUGAGGGUUCCAUUCUU,0.317

# For quick reference, copied from above (study 2):
Oligonucleotide,E-score
GTAAGGAA,-0.223
AATCTGGT,-0.237
GGCGATAA,0.136
TATAAGCA,-0.141
AGTGTGGC,0.0162
GATTCTGA,-0.0915
AGTGTAAG,-0.0789
